Measurements of several laboratories.
Numbered parts are unrelated; each lists some results of a single study.

Series 1
Target: RING finger protein unkempt homolog, zinc fingers 1-6, SBP tag (UNK, Homo sapiens, UniProt Q9C0B0, residues 30-357)
Chain of UniProt Q9C0B0 (30-357, looked up): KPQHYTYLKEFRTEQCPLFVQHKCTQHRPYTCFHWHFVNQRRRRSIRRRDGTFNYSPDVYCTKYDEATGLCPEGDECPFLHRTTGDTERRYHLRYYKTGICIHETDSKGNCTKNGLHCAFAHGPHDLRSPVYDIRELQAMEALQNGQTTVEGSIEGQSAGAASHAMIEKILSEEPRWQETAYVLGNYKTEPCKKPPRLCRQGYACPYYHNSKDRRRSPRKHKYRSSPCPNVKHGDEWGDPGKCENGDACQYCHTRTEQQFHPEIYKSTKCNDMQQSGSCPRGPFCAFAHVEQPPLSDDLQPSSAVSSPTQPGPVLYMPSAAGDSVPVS
Technique: RNA Bind-n-Seq
Molecule type: RNA
Medium: in vitro
Tested at: 100 nM
Setting: RNA with constant flanks, vertebrate orthologous sites, ends assumed
Reference: input RNA pool
Reading: higher = stronger binding
| Sequence | bound/input enrichment |
| --- | --- |
| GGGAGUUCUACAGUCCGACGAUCUUCAGGCACAACUGACUGGUUCACAGCAUUCCUUACAUAGCUAUCUAUCAAAUGCAAGUGUAGUUAAUUUUCAGGAAACAAGCAGGCAGUCAUCUUUAUCCUGUAGCCCGAUCGGAGAUUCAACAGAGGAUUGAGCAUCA | 1.4 ratio |
| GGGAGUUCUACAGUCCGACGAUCUCCUCAGCGUGUUCUAGCUUGUGAUCCUUCAAAGAUGGGUUAUGUGUUAAUGAUAGAUACUGGAAAUGUUUACUUCUCUCUUUCACUGAUCAGAGAAACAGGCAUUAAAAACAGAAAUACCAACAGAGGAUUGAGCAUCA | 0.448 ratio |
| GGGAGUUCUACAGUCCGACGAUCGUUUGGCCUACCCAGCCUUCCUCUUAGGAGCGGCUUCAUUUAUGACAAAUGUACUAUAUCGAGUUGAGCUUAUUAUUUUUUUAUUAUCCUGUAAAUAAAGAUGGCACCUCCUACAUUAAACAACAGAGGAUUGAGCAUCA | 1.1 ratio |
| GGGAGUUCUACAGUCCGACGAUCCUUUCUUGUCUUUUGACCUCAUUUCUUUAUUUUUAUCUUCAUUUUAUUUUCUUUCUUUUUCUAGUGUUGUUACCCACGCCAUUUUAUGUCUCCUUCACUGAAGGGCUAGAGUUUUAACUUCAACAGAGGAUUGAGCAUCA | 7.96 ratio |
| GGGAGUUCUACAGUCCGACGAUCCUCCCUCAGCGACAGUAUGCCAUCUGUAGCGGAUUCCCACUCUAGUCAUUUUUCAGAAUUUAGCUGUUCUGACUUAGAAAGCAUGAAAACUUCUUGUAGUCAUGGUUCCAGUGAUUAUCACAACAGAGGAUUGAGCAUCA | 1.48 ratio |
| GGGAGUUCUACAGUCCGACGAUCUUCAACAAAAAUGUUUCCACUGGGUUUUGUGUCUAUAAGAAAAAAUCUAUCCCAAACACAUAGAGCUUUUUAAUAGCACUAACCAAUGCCUUUUUAGAUGUAUUUUUGAUGUAUAUAUCUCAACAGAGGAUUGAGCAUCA | 0.308 ratio |
| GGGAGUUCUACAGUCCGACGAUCCAGCUGAUUCACUGAUUGGGAGAGCUGCACAUAUAGCUGUUCUUGAUUCUGAAAUAUUUUUAGAGAAAUUUUUUCUGGUUGCUGCCCUUAAAUAUUUCCAAUAGGAUAAAAGCAUUGUUACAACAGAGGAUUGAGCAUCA | 0.971 ratio |
| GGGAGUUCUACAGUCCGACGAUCACCCCGAUUUUAGAUGUGAUAUCUAGGCUUUCAUUCCAGUUGUUUUUGUCUUUUCUUGUUUAGAUACCACUUUUAAAUUCUUGCAUUUUAGUAAGAAAGCUACCUUUUUAUGGAUGUUAGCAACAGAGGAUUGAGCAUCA | 0.818 ratio |

Series 2
Target: Protein max, full length (MAX, Homo sapiens, UniProt P61244-2, residues 1-151)
Technique: protein-binding microarray
Molecule type: double-stranded DNA, one strand shown
Medium: in vitro
Tested at: not given
Setting: k-mer, scored over probes, only values ≥0.25
Reading: higher = stronger binding
| Sequence | E-score |
| --- | --- |
| ACCCATGC | 0.413 |
| ATGCGCCG | 0.304 |
| CGCGGCAC | 0.297 |
| ACACGTTA | 0.386 |
| ATGCGCTC | 0.289 |
| GCGTGTCA | 0.398 |
| GGTGGGGA | 0.258 |
| ATCGCACG | 0.346 |
| ACAACACG | 0.37 |
| AAAACATG | 0.271 |
| CGTGGTGA | 0.355 |
| GCACGAGA | 0.395 |
| GCACCCAC | 0.313 |
| ACATGGGC | 0.343 |
| ACGTGGCC | 0.419 |
| CACGAGCC | 0.319 |
| AACGTGAG | 0.329 |
| CACGTGCC | 0.495 |

Series 3
Target: PABPC1L2, full length, GST fusion (mouse, UniProt A0ABA7IW68)
Technique: RNAcompete
Molecule type: RNA
Medium: in vitro
Tested at: 20 nM
Setting: 7-mer, probes averaged, single round
Reference: mean of 7-mers
Reading: higher = stronger binding
Residues (chain): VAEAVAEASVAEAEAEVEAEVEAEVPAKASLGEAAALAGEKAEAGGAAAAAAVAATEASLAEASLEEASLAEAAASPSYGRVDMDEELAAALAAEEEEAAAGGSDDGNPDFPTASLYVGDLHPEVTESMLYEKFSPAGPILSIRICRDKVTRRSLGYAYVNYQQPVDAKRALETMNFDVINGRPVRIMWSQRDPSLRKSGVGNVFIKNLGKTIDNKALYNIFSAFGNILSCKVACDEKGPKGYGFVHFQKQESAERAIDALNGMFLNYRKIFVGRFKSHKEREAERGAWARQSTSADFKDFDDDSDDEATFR
| Sequence | 7-mer Z-score |
| --- | --- |
| UGCCUUA | -0.331 |
| UCAACCU | -0.26 |
| CUGAUUG | -0.0881 |
| GCCCAUU | -0.231 |
| UAAACAG | 2.7 |
| GGUGAUC | 0.0515 |
| UGAGGGC | 0.204 |
| AUUUCCA | -0.219 |
| ACUCAUA | -0.273 |
| CUUACAG | -0.197 |
| AUAAGAC | 0.361 |
| CACCAUG | -0.11 |
| GAUAUUU | -0.244 |
| CGAUCCC | -0.405 |
| CCUUAGU | -0.257 |
| UCCCAUC | -0.438 |
| UAGUGGU | -0.329 |
| GCGUCGU | -0.449 |
| GCAGCCG | -0.0591 |
| UCUUCUG | -0.445 |
| GGCGUAU | -0.104 |
| AAGAGUG | 0.166 |
| CAAAAUC | 1.02 |
| UACCGAU | -0.237 |
| UUUUCGG | -0.144 |

Series 4
Target: Histone acetyltransferase KAT6A, winged helix 2, GST fusion (KAT6A, Homo sapiens, UniProt Q92794, residues 85-181)
Technique: protein binding microarray
Molecule type: double-stranded DNA, one strand shown
Medium: in vitro
Tested at: not given
Setting: 8-mer, flanks averaged, mean of 2 arrays, mostly near background
Reference: not given
Reading: higher = stronger binding
Construct (chain): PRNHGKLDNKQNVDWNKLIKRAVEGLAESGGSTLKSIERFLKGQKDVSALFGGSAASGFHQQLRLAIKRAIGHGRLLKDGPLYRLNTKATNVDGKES
| Sequence | E-score |
| --- | --- |
| GCCCGTCA | -0.0123 |
| AGATTCAT | 0.0623 |
| CAATCTCG | -0.0878 |
| TCCGAGCA | 0.0816 |
| AGAAATAC | -0.00544 |
| AACGATGA | -0.08 |
| AGCTAGCC | -0.0101 |
| CTATACTC | -0.0163 |
| CGTTCATA | -0.154 |
| TAGCCCTA | -0.14 |
| TACTTCGA | 0.161 |
| CCGCTGCC | 0.101 |
| GCACGGGA | -0.0687 |
| CTCGCGAG | 0.122 |
| GCCCATCC | 0.0492 |
| CGGGGGGA | -0.0303 |
| AGCGCCAG | 0.174 |
| AAACTCTT | -0.0574 |
| AGAGTATC | -0.113 |
| AGCGAGAC | -0.0642 |
| GACGGCCA | 0.0459 |
| GCATATCA | 0.128 |
| CCTGCACG | 0.033 |
| CCAGTTCC | 0.0767 |
| ATTGTGAG | 0.0483 |

Series 5
Target: Interferon regulatory factor 7, full length, phosphomimetic (IRF7, Homo sapiens, UniProt Q92985, residues 1-503, S101K/S471D/S472D/S475D/S476D/S477D/S483D/S484D/S487D)
Technique: protein-binding microarray
Molecule type: double-stranded DNA, one strand shown
Medium: in vitro
Tested at: 250 nM
Setting: 60-bp whole probe
Together with: salmon DNA 0.4 mg/ml
Reference: random background probes
Reading: higher = stronger binding
All sequences stand within: GCCTAGCAC … GTCTTGATTCGCTTGACGCTGCTG
Residues (chain): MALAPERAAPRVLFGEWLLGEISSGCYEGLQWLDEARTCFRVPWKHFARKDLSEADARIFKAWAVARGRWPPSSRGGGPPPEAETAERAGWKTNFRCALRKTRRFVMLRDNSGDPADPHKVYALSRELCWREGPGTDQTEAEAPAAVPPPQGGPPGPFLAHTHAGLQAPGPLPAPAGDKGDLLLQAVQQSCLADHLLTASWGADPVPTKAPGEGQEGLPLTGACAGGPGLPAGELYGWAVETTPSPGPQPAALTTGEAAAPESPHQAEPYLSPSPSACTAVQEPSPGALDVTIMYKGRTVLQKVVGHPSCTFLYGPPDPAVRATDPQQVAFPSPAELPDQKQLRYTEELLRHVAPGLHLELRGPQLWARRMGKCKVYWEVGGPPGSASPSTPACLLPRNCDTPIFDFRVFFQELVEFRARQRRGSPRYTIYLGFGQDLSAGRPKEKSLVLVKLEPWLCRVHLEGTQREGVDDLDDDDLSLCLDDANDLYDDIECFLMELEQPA
| Sequence | log fluorescence |
| --- | --- |
| TTAGGTATCGACTTTCGGGTAGTGCTA | 1.76 z-score |
| TTAGGTTTCGGTATCGGTGAGTGCTAG | 10.7 z-score |
| GACGGTTTACTTCTCCTGACGTGCTAG | 0.24 z-score |
| TGAGAACTGGGGTTTCGATTAGTGCTA | 5.36 z-score |
| TTAGGTTCCGACTATCGGTTAGTGCTA | 1.13 z-score |
| GACGAAATCAGACTGGAGACGTGCTAG | -0.148 z-score |
| TTAGGTTTCGGTATCCGTTAGTGCTAG | 11.4 z-score |
| TGGCCTATTTATATGAGATGGTGCTAG | 0.573 z-score |
| GACGTTTTCCTTTTCCTGACGTGCTAG | 3.56 z-score |
| TCATCTTTCCAACTCTGACTGTGCTAG | 1.65 z-score |
| TTCCAACTCTGTTTTCGCTTGTGCTAG | 1.35 z-score |
| TGAGATTTCAGACTGGATTAGTGCTAG | -0.142 z-score |
| GGCCTTGGAGGGGGTGGGTGGTGCTAG | 2.46 z-score |
| TTTGCTTTCTTTATGTACTCGTGCTAG | 0.659 z-score |
| TCACTTTTCACTTTCTTACTGTGCTAG | 1.94 z-score |
| GACGTTATCCTTTTCCTGACGTGCTAG | 1.06 z-score |
| GACGGTGTCGGACTGGGGACGTGCTAG | -0.566 z-score |
| GACGATATCAGTTTCGAGGCGTGCTAG | 2.4 z-score |
| CTTTACATGAGTTTAGAGCCGTGCTAG | 0.134 z-score |

Excerpt of the above (series 3):
| Sequence | 7-mer Z-score |
| --- | --- |
| CUGAUUG | -0.0881 |
| UGAGGGC | 0.204 |
| UAGUGGU | -0.329 |
| UACCGAU | -0.237 |
| AAGAGUG | 0.166 |
| GCGUCGU | -0.449 |
| UCAACCU | -0.26 |
| AUUUCCA | -0.219 |
| UGCCUUA | -0.331 |
| GAUAUUU | -0.244 |
| AUAAGAC | 0.361 |
| GGCGUAU | -0.104 |
| CACCAUG | -0.11 |
| GCAGCCG | -0.0591 |
